Experimental data of several laboratories.
Parts stem from different laboratories: compare values within a part only.
UniProt Q96J92, sequence (whole entry, looked up): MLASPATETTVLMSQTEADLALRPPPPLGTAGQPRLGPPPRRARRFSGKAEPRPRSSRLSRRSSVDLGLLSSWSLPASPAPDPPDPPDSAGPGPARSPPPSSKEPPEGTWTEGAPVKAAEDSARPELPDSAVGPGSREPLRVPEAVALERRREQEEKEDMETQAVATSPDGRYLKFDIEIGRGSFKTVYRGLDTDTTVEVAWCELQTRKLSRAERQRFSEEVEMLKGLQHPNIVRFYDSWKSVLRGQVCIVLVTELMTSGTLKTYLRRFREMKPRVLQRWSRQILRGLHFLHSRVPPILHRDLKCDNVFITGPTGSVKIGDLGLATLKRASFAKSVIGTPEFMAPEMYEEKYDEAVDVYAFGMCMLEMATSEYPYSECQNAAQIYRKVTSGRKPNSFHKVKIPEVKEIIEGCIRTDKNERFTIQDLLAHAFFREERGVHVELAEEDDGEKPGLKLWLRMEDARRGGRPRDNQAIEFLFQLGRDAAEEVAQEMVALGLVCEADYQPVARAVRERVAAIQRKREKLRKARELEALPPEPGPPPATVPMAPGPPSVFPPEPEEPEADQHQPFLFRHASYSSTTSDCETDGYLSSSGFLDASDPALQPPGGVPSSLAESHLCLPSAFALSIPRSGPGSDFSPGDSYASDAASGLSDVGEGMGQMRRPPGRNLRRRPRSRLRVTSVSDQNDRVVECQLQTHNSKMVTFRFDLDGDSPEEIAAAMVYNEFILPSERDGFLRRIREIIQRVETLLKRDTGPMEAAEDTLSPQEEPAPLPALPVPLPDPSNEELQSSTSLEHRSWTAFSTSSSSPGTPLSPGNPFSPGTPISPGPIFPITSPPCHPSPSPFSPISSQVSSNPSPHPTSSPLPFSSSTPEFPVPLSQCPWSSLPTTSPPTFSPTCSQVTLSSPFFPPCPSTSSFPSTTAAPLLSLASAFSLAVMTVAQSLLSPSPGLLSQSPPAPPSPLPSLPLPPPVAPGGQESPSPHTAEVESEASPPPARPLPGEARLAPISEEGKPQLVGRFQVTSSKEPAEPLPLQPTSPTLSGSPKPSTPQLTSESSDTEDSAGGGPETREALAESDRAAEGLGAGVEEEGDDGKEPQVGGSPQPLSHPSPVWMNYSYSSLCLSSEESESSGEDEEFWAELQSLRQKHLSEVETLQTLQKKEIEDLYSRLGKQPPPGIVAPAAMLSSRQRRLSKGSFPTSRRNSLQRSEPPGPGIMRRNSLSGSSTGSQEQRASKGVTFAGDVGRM
UniProt Q9UHD2, sequence (whole entry, looked up): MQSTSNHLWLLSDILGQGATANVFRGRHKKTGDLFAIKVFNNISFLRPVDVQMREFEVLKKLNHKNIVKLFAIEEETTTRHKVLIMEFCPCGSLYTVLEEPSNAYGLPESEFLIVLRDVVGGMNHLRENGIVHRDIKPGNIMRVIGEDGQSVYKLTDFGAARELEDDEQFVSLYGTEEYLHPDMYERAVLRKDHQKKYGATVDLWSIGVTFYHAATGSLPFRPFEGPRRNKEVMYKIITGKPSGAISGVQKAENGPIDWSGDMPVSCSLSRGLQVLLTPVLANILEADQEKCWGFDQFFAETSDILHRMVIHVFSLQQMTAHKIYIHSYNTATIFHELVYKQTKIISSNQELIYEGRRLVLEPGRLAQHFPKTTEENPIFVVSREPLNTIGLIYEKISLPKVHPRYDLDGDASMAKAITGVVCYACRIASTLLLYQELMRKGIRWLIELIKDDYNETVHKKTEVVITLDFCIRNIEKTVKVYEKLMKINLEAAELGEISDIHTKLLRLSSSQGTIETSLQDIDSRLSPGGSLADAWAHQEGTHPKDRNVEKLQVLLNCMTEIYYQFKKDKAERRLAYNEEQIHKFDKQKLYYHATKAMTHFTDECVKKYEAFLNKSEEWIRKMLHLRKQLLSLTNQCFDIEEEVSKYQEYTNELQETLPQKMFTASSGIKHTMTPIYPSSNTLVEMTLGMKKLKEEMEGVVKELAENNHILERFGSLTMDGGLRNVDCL
UniProt Q9HAZ1, sequence (whole entry, looked up): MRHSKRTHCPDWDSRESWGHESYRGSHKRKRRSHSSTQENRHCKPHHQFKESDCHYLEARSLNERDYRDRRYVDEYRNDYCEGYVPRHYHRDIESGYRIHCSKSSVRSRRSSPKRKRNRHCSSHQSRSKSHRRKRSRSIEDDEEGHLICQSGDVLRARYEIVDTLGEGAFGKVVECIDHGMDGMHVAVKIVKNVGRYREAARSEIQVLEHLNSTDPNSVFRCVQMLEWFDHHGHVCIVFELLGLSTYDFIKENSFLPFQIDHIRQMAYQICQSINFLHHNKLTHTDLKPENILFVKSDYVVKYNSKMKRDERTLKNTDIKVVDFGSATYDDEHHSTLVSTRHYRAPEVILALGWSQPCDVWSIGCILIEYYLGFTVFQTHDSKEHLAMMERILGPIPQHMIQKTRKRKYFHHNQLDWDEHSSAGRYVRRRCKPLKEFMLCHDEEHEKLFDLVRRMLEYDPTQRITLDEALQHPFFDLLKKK
UniProt P49674, sequence (whole entry, looked up): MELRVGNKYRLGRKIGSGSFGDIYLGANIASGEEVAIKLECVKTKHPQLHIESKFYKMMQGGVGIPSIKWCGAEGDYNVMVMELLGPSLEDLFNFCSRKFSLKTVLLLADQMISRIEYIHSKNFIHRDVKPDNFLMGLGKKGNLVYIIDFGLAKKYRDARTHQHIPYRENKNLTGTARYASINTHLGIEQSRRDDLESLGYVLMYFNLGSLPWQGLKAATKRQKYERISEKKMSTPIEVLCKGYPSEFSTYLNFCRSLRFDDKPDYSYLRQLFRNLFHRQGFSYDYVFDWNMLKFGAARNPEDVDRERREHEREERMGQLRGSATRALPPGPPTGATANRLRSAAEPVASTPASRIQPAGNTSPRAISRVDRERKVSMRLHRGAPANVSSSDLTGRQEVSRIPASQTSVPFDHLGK
UniProt Q9BRS2, sequence (whole entry, looked up): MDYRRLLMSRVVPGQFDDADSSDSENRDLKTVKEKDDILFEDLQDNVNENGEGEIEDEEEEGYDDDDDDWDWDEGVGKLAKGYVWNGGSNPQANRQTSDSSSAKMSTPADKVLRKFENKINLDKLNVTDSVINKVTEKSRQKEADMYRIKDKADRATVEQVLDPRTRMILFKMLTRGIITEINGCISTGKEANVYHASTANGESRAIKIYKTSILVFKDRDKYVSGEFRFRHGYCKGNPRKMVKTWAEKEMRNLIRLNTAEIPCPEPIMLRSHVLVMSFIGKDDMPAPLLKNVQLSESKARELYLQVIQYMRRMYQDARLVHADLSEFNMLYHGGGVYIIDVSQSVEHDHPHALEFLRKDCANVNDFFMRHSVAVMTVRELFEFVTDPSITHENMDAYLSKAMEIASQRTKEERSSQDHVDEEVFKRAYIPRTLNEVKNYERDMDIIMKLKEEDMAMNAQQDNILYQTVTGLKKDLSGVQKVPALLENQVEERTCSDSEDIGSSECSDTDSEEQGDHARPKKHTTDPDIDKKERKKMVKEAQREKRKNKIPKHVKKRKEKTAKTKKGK

Sample 1
Host: mouse
Medium: microsomes or S9
Concentration: 2 µM
Time: 0.5 h
Quantity: remaining compound
COc1ccc(NS(=O)(=O)c2c(C)nn(-c3ccc(-c4ccccc4)nn3)c2C)cc1F: 45.4%
Cc1ccc2oc(=O)c(/C=C(\O)CC(C)C)nc2c1: 80.2%
Cc1cc(Br)ccc1NC(=O)C(NS(=O)(=O)c1cccs1)c1ccccc1 (stereo not drawn): 8.63%
CCOC(=O)c1cc2n(n1)CC(C)(C(=O)NCCCOC)N(c1ccc(C)c(Cl)c1)C2=O (stereo not drawn): 1.5%
OC(Cn1c(Cc2ccccc2)nc2ccccc21)Cn1c2ccccc2c2ccccc21 (stereo not drawn): 11.7%
Clc1ccc(-c2nc3ncccn3c2Nc2ccccc2)cc1: 17.9%
Cn1c(=O)c2c(nc(N3CCCCC3)n2CC/N=C2\CCCN2)n(C)c1=O: 89.2%
O=C(O)c1cn2c(n1)C(c1ccccc1)N(C(=O)c1ccccc1)CC2 (stereo not drawn): 31.7%
Cc1cc2cc(CN(Cc3cccs3)S(=O)(=O)c3ccc(F)cc3)c(=O)[nH]c2cc1C: 7.58%
COc1cc(Nc2ncnc3c2cnn3-c2ccc(C)cc2C)cc(OC)c1OC: 17.9%
COc1cc(NC(=O)CCC(=O)OC(C)C)nc(OC)n1: 0.209%
COC(=O)c1cc(I)c(N)c(I)c1C: 78.6%
Fc1ccc2onc(-c3cnc4c(c3)COc3ccccc3-4)c2c1: 11.5%

Sample 2
SMILES: C=CCc1ccc(O)c(-c2cc(CC=C)ccc2O)c1
Effect on: chloride current
Method: whole-cell voltage clamp
Quantity: IC50
ANO1 del476-501/F803A: Anoctamin-1 (ANO1, Homo sapiens, UniProt Q5XXA6, del476-501/F803A)
UniProt Q5XXA6, sequence (whole entry, unmodified, looked up): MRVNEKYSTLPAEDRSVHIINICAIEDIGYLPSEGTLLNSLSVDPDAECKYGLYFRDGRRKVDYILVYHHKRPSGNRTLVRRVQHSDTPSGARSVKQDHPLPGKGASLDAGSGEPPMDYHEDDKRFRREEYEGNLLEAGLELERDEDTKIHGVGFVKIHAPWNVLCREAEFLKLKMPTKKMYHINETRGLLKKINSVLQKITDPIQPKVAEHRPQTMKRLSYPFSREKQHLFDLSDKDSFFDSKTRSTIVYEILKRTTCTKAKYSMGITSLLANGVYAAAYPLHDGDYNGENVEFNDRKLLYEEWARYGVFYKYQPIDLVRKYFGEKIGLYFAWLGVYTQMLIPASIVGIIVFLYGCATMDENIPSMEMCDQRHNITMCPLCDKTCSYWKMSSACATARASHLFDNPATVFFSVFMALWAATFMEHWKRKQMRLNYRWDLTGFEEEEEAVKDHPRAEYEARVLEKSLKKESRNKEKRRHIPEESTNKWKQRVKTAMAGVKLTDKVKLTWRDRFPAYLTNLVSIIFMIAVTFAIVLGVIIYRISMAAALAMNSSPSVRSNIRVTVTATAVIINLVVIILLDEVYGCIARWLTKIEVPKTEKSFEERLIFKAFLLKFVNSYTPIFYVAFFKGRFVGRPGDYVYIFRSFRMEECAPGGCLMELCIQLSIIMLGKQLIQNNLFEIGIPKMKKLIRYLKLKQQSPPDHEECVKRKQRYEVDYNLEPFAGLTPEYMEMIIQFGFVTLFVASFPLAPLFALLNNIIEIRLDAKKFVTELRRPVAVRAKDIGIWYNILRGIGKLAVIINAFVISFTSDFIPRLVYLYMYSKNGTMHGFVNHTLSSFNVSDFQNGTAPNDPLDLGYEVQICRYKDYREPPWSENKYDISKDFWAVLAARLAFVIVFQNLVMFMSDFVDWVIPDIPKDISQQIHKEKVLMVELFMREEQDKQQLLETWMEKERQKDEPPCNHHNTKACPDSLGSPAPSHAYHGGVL
ANO1 del476-501/R541I: Anoctamin-1 (ANO1, Homo sapiens, UniProt Q5XXA6, del476-501/R541I)
ANO1 del476-501/F803A; membrane voltage -60 mV: 52.3 µM
Anoctamin-1 (ANO1, Homo sapiens, UniProt Q5XXA6, del476-501/K629R); inhibitor; 100 mV holding voltage: 251 µM
ANO1 del476-501/F803A; membrane voltage 80 mV: 19.4 µM
Anoctamin-1 (ANO1, Homo sapiens, UniProt Q5XXA6, del476-501/L548A); membrane voltage 40 mV: 31.6 µM
Anoctamin-1 (ANO1, Homo sapiens, UniProt Q5XXA6, del476-501/R541D); inhibitor; R515D mutant at -40 mV: 131 µM
Anoctamin-1 (ANO1, Homo sapiens, UniProt Q5XXA6, del476-501/E650A); membrane voltage 100 mV: 21.5 µM
ANO1 del476-501/R541I; inhibitor; R515I mutant at -80 mV: 45 µM
Anoctamin-1 (ANO1, Homo sapiens, UniProt Q5XXA6, del476-501/R541K); inhibitor; mutant R515K: 29.4 µM
Anoctamin-1 (ANO1, Homo sapiens, UniProt Q5XXA6, del476-501/E649I); inhibitor; mutant E623I: 121 µM
ANO1 del476-501/R541I; inhibitor; R515I mutant at 40 mV: 53.1 µM

Sample 3
Target: Serine/threonine-protein kinase PAK 2 (PAK2, Homo sapiens, UniProt Q13177)
UniProt Q13177, sequence (whole entry, looked up): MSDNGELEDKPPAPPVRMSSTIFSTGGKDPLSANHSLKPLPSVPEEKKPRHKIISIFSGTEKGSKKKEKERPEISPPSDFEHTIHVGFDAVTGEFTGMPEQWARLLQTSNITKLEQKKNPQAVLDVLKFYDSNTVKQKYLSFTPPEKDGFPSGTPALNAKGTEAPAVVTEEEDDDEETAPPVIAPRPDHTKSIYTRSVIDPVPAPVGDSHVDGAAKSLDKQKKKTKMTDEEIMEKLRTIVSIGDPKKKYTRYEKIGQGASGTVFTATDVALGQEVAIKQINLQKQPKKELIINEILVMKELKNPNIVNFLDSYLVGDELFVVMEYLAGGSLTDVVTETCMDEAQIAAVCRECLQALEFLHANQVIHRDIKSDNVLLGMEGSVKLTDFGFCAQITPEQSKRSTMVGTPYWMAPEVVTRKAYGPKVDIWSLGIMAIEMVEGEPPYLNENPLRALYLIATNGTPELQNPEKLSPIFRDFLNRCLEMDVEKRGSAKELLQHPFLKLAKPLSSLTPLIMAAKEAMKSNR
Effect on: enzyme activity
Mode: inhibitor
Concentration: 0.5 µM
Relative to: control
Quantity: remaining activity
Cc1cc(Nc2nc(-c3ccccc3)nc3ccccc23)n[nH]1: 91.8%
CC(=O)c1ccc(N2CCOCC2)cc1O: 98.8%
O=S(=O)(NCCNC/C=C/c1ccc(Br)cc1)c1cccc2cnccc12: 78.6%
NC(=O)c1ccc(N(C(N)=O)c2c(F)cccc2F)nc1-c1ccc(F)cc1F: 101%
Oc1ccc(Nc2nc(-c3ccc(Cl)cc3)cs2)cc1: 87%
CC(C)(C)n1nc(Cc2cccc3ccccc23)c2c(N)ncnc21: 94.7%
O=C1NC(=O)C(c2c[nH]c3ccccc23)=C1c1c[nH]c2ccccc12: 97%
CCc1[nH]c(-c2ccc(OC)cc2)nc1-c1ccncc1: 90.7%
CC#CC(=O)Nc1cc2c(Nc3ccc(F)c(Cl)c3)ncnc2cn1: 105%
Cc1cncc2cccc(S(=O)(=O)N3CCCN(C(=O)CN)C[C@@H]3C)c12: 99.7%
CSc1nc(-c2ccnc(N[C@@H](C)c3ccccc3)c2)c(-c2ccc(F)cc2)[nH]1 (racemic): 104%
Nc1ncnc2c1cnn2-c1ccccc1: 98.1%
O=C1Cc2c([nH]c3ccc([N+](=O)[O-])cc23)-c2ccccc2N1: 41%
Fc1ccc(-c2nc3n(c2-c2ccncc2)CCS3)cc1: 84.7%
N#CC(=C(N)Sc1ccc(N)cc1)c1ccccc1C(F)(F)F: 98%
CC[n+]1c(/C=C/N(C)c2ccccc2)n(-c2ccccc2)c2ccc(-c3nc4ccccc4s3)cc21: 97.3%

Sample 4
Compound: O=C(O)[C@H]1[C@H](Cn2nnc3ccccc3c2=O)CC[C@@H]1C(=O)c1ccc(OCCC2CCOCC2)cc1
Effect on: cell-free assay
Method: competition with immobilised ligand
Concentration: 1 µM
Quantity: remaining binding
WNK4 (Homo sapiens, UniProt Q96J92): 91%
CLK4 (Homo sapiens, UniProt Q9HAZ1): 100%
RIOK1 (Homo sapiens, UniProt Q9BRS2): 100%
TGFBR1 (Homo sapiens, UniProt P36897): 90%
TBK1 (Homo sapiens, UniProt Q9UHD2): 94%
CSNK1E (Homo sapiens, UniProt P49674): 100%

Repeated from above (sample 2):
Anoctamin-1 (ANO1, Homo sapiens, UniProt Q5XXA6, del476-501/E650A); membrane voltage 100 mV: 21.5 µM
ANO1 del476-501/R541I; inhibitor; R515I mutant at 40 mV: 53.1 µM
Anoctamin-1 (ANO1, Homo sapiens, UniProt Q5XXA6, del476-501/R541K); inhibitor; mutant R515K: 29.4 µM
Anoctamin-1 (ANO1, Homo sapiens, UniProt Q5XXA6, del476-501/R541D); inhibitor; R515D mutant at -40 mV: 131 µM
Anoctamin-1 (ANO1, Homo sapiens, UniProt Q5XXA6, del476-501/E649I); inhibitor; mutant E623I: 121 µM
ANO1 del476-501/F803A; membrane voltage 80 mV: 19.4 µM
